# Measured values from different studies.
# Every numbered part comes from another study and shows a few of its results, in no order. “And” joins repeats or separate records; there may be more than shown. Changes are numbered by the printed parent chain.

# Study 1
# Target: MAFK, bZIP domain (human)
# Technique: DHFR protein complementation
# Sample: yeast
# Notes: single substitutions, most at no-binding floor
# Relative to: wild-type JUN-FOS pair
# Direction: higher = stronger binding
# Parent: JUN, bZIP domain (human); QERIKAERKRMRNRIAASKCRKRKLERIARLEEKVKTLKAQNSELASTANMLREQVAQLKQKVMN; partner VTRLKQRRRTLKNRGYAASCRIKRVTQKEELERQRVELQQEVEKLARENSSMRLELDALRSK
Variant,binding fitness
T37L,-1.36 natural log
E44M,-1.62 natural log
T48I,-1.48 natural log
Q41D,-1.46 natural log
L59W,-1.54 natural log
K36W,-1.54 natural log
S43T,-1.48 natural log
N42D,-1.51 natural log
Q55H,-1.5 natural log
S43R,-1.45 natural log
A57E,-1.45 natural log
K34C,-1.44 natural log
K34W,-1.38 natural log
T37C,-1.53 natural log
A49C,-1.43 natural log
A57N,-1.63 natural log
T48S,-1.47 natural log
A57D,-1.49 natural log

# Study 2
# Target: Histone acetyltransferase KAT6A, both winged helices, GST fusion (KAT6A, Homo sapiens, UniProt Q92794, residues 1-181)
# Technique: protein binding microarray
# Form: double-stranded DNA, one strand shown
# Sample: in vitro
# Tested at: not given
# Notes: 8-mer, flanks averaged, mean of 2 arrays, mostly near background
# Relative to: not given
# Direction: higher = stronger binding
# Construct (chain): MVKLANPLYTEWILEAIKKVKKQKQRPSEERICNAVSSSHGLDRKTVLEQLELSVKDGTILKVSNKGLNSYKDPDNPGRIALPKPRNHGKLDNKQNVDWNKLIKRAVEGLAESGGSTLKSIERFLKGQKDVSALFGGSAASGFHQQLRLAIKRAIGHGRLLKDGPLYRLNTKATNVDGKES
Strand,E-score
GTACAAGA,-0.0442
CCTAGGAC,-0.269
ACGTATAT,-0.0776
TCTGACCA,-0.0585
CGGCTAAC,0.289
TAAGAAAA,-0.0956
CTTCGCTA,-0.137
CGGCTCAG,0.193
CCGACCAG,0.0923
CCTGCTTC,-0.0457
AAGCATGG,-0.132
AAAAACCC,-0.0366
AATGGTAT,-0.186
TATGACAA,-0.0419
AGTCTAAT,0.0321
CATCATAA,-0.0861
AAAAGCCT,-0.199
AAGAGGGA,-0.274
CGCCGAGA,0.258
CGTAGATC,0.0378
AGACGTAC,-0.0197
CAGACGCA,-0.00758
ATCGCACA,-0.0416
GCAGCTAA,-0.104
CCGGAAGC,0.168

# Study 3
# Target: CCND2, cyclin fold, Cln2 fusion (human)
# Technique: yeast growth competition, sequencing
# Sample: yeast
# Notes: weak parent motif
# Relative to: not given
# Direction: higher = stronger binding
# Parent: CDC6 docking peptide (human); TLKGRRLVFDNQL; partner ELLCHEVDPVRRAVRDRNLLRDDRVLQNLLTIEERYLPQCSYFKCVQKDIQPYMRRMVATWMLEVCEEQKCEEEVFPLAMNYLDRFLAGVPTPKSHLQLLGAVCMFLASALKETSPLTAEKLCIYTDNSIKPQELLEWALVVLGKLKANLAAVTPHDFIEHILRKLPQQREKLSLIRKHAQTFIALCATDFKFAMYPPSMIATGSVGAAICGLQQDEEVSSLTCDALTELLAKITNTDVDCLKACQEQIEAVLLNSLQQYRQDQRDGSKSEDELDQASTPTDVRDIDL
Variant,normalised enrichment score
TLKGRRLVFVNQL [D10V],-0.315
TLKGRRLVADNQL [F9A],-0.129
TYKGRRLVFDNQL [L2Y],0.364
TLGGRRLVFDNQL [K3G],-0.126
TLKGRRLVFDNQA [L13A],0.362
TLKGRRLVFDNQP [L13P],0.527
TLKCRRLVFDNQL [G4C],0.583
TLKGRRLVFDNYL [Q12Y],0.695
TLKGRRLVFDNQD [L13D],0.206
TLKGRRLVFQNQL [D10Q],-0.447
TLKGRLLVFDNQL [R6L],0.262
TLKGRRMVFDNQL [L7M],0.124
TLKGARLVFDNQL [R5A],0.0352
TLKGRRLVQDNQL [F9Q],0.418
TLKGRRLVFPNQL [D10P],-0.174
TLKGRRLMFDNQL [V8M],-0.108
NLKGRRLVFDNQL [T1N],0.47
TLKGRRLVFLNQL [D10L],0.0739
TLKERRLVFDNQL [G4E],0.0212
TLKGRRLAFDNQL [V8A],-0.426

# Study 4
# Target: RNA binding protein fox-1 homolog 2, RRM domain, GST-SBP tag (RBFOX2, Homo sapiens, UniProt O43251-10, residues 100-194)
# Technique: RNA Bind-n-Seq
# Form: RNA
# Sample: in vitro
# Tested at: 365 nM
# Notes: natural RNA segment, single round, ends assumed
# Relative to: no-protein control
# Direction: higher = stronger binding
# Constant ends, left off below: GGGAGUUCUACAGUCCGACGAUC … UGGAAUUCUCGGGUGCCAA
# Residues (chain): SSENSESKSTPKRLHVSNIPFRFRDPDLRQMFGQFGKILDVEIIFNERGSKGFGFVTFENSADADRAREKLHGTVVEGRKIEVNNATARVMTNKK
Strand,RBNS enrichment (R)
AAUAUCUGCUUUAAUAUAGCUAUCAUUUCUUUUCCAAAAUUACUUCUCUCUAUCUGGAAUUUAAUUAAUCGAAAUGAAUUUAUCUGAAUAUAGGAAGCAUAUGCCUACUU,0.427
GUGAUCUUUUCAAUUCAGUGAAUAAACCAGGAAUCCAUUUUUUCACCAACCCACCCUGUAGAUUGUCAGCUUUUUGUUUGAGAGAUGCCUGGUCUCACAGUUACAUGUAU,0.755
UAUACCUCCUGCUGGUAUCAGGUGUCAGAAGGGACAUUUGUUAGAUGCCUUACUUGACCUUCCUAGGAACUGUUGAUCAGCUACCUCUUUCUGUCAAGUGUUGGUAGAAU,0.315
UACUAAGACACCAAAUAGUGUCCAUGUAAGAUGGCAACUGCAUUAAAAAAAAAUCAGGAAAAACAAAUGUUUGGUUAUUGUUUUGUUUUAUCUUGUCUGUUAGAGAUGCU,3.49
ACCAUCCCUGAUGGCAGAACUCCCACAACCACAUGUAUUUAUUCCUCUGUCCUAAACCGUCCCCUCCUUCCCUCACCCCCAGCACAGGGGGAUUCUGAGCAGUGCCUCUU,1.08
AAUACUGAACCUGCCUGCUGAACAGCCUGUCCCAUCCAUCCCUAUGAGUGACCAUCCGUCCGAAUGUUCUCCCACUUCCUUCAGCCUCUCCUCGGCUUCUUGCACUGAGC,2.81
UGCUAGGGGGAUUCAGGGAAGACCCGUGUUACCAGCUCUUACCCUUUAUCUGGACAGCUCUCCUACCCUGUAUCUUCUCCUCAGAUCUGAGGAUAGCAGGCUGGACUAUU,0.291
GUGGCAGACUGACUUUGGACAGUGAGACCCUGACCUUGCUGCAUUGCUUUGCCUUCACCACCGCUAGUCUGUUUGGAAGGCUUGAGGUGGGGUGUCUUGGGAAAUUAGGG,1.64

# Study 5
# Target: Prothrombin, mature alpha-thrombin (F2, Homo sapiens, UniProt P00734)
# Technique: aptamer microarray, sandwich
# Form: DNA with 2'F-ANA
# Sample: in vitro
# Tested at: 200 nM
# Notes: whole 15-mer aptamer, many near background
# Together with: Cy3 exosite-II aptamer, 400 nM
# Direction: higher = stronger binding
# Strand: GGTTGGTGTGGTTGG
Modification,mean fluorescence intensity [a.u.]
2'F-ANA at 1 3 4 10 12,90
2'F-ANA at 2 3 10 12 13 14 15,280
2'F-ANA at 2 3 4 6 7 10 11 15,219
2'F-ANA at 2 3 5 8 13 14,59
2'F-ANA at 3 4 5 6 7 11 12,159
2'F-ANA at 1 3 4 6 7 10 11 13 15,87
2'F-ANA at 3 4 5 8 9 11 12 13,120
2'F-ANA at 2 3 4 7 8 9 12 13,703
2'F-ANA at 1 3 6 11 15,223
2'F-ANA at 1 4 7 8 9 13 14,48.6
2'F-ANA at 1 2 3 7 8 9 11 13 14,70
2'F-ANA at 2 3 5 6 7 9 10 11 15,53.4
2'F-ANA at 3 8 9 11 13,1120
2'F-ANA at 2 3 4 5 6 7 8 9 10 11 13 14 15,50.9
2'F-ANA at 1 4 5 6 7 8 9 10 13 14 15,58.2
2'F-ANA at 3 8 10 11 12 13 14 15,401
2'F-ANA at 7 9 10 11 12 14 15,106
2'F-ANA at 3 8 9 10 13 14 15,374
2'F-ANA at 1 3 5 6 7 10 13,48.2
2'F-ANA at 1 2 3 6 7 10 11 12 14,59.8

# Further values, each from its own experiment
Substance,target,test,test system,setting,scale,measurement,value
"PhoQ, residues 284 288 289 292 302 303 TLASMF","PhoP, residues 12 14 15 18 19 LWHSL (Escherichia coli, UniProt P23836)","Sort-seq, item: YFP reporter",E. coli,"PhoQ-PhoP variant library, together with: 10 µM Mg2+","relative to: high Mg2+ state, higher = stronger signaling",fold induction,9.45 and 4.19
